Published values pooled from the literature.
A part holds a random share of what one study measured. Substitutions count along the parent as printed.

Block 1
Target: HLA class I histocompatibility antigen, A alpha chain, allele A*80:01 (Homo sapiens, UniProt P04439)
Read-out: peptide-MHC binding
Form: peptide
Concentration: concentration not given
Measurement: binding
RLDKPLWLH: inactive
GRFQEALKK: inactive
FTWQHNYYL: inactive
KDGTLFYCY: inactive

Block 2
Target: CCNE1, cyclin fold, Cln2 fusion (human)
Technique: yeast growth competition, sequencing
Medium: yeast
Notes: strong parent motif
Baseline: not given
Direction: higher = stronger binding
Measurement: normalised enrichment score
Starting sequence: PKMYT1 docking peptide (human); SFEPRNLLSLFED; partner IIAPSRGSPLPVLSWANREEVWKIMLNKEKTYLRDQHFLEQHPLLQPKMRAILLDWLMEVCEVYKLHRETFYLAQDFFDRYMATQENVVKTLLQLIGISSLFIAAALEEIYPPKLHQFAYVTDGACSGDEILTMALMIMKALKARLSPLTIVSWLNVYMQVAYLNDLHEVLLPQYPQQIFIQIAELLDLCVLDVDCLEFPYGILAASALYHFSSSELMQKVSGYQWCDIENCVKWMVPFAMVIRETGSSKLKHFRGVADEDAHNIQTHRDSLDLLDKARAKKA
E3K: 3.45
L7S: 0.215
N6G: 1.3
F2S: 0.0379
R5K F11L: 0.576
R5Q: 1.24
N6T: 0.0694
P4I: -0.0344

Block 3
Target: UBE2A UBC core domain (UniProt P49459)
UniProt P49459, sequence (whole entry, looked up): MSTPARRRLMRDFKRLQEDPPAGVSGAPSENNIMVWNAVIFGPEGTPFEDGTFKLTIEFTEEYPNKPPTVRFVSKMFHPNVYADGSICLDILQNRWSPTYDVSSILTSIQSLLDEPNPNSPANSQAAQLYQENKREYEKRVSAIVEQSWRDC
Technique: yeast two-hybrid
Medium: yeast
Notes: mostly zero background
Baseline: not given
Direction: higher = stronger interaction
Measurement: lacZ reporter activity
B1: ZMIZ2 RING domain (UniProt Q8NF64); chain GTIPGTPGPNGEDGVEQTAIKVSLKCPITFRRIQLPARGHDCRHIQCFDLESYLQLNCERGTWRCPVCNKTALLEGLEVDQYMLGILIYIQNSDYEEITIDPTCSWK
B2: UBOX5 RING domain (UniProt O94941); chain EQPGSILGPECASCKRVFSPYFKKEPVYQLPCGHLLCRPCLGEKQRSLPMTCTACQRPVASQDVLR
YQNEVDDDLVCHICLQPLLQPLDTPCGHTFCYKCLRNFLQEKDFCPLDRKRLHFKLCKK (LNX2 RING domain (UniProt Q8N448)): 0
B1 (ZMIZ2 RING domain): 0
B2 (UBOX5 RING domain): 0

Mixed results
HSPA9 (Homo sapiens, UniProt P38646)
cross-linked residues (CEP192 (Homo sapiens, UniProt Q8TEP8); cross-linking MS; cells; added: BSPNO): K206 to K1936

For quick reference, copied from above (block 2):
L7S: 0.215
N6G: 1.3
F2S: 0.0379
